Experimental data of several laboratories.
Parts stem from different laboratories: compare values within a part only.

Block 1 — technique: universal PBM; molecule type: double-stranded DNA, one strand shown; sample: in vitro; tested at: not given; reading: higher = stronger binding
Target: Sal-like protein 4, full length isoform B (SALL4, Homo sapiens, UniProt Q9UJQ4-2, residues 1-616)
Notes: 8-mer, flanks averaged, mean of replicates
Construct (chain): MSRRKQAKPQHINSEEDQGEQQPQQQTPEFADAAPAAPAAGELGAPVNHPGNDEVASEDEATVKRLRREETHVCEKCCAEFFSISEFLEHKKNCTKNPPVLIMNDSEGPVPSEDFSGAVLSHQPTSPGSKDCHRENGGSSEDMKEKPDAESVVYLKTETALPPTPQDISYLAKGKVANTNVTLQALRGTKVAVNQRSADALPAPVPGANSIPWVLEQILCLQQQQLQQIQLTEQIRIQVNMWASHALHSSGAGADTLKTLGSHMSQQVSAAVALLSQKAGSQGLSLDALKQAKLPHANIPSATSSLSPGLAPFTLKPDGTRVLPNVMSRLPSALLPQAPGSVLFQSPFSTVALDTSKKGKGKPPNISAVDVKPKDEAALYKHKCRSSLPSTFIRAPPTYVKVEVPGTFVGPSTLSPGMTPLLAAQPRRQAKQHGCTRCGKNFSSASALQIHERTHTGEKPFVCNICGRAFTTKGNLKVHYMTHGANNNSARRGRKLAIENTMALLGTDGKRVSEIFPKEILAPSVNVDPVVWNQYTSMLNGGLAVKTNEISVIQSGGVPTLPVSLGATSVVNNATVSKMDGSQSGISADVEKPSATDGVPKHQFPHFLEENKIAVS
| Sequence | E-score |
| --- | --- |
| CAGGTCGG | -0.324 |
| ACAGTCCA | -0.0834 |
| AGTGGAGG | -0.146 |
| AGTGCTAA | -0.0319 |
| TCCTAGGA | -0.247 |
| CTTGGGGC | -0.292 |
| GCGGAACC | -0.225 |
| ACTGCCGG | -0.257 |
| CCGTCAAG | -0.247 |
| AAAGAGTC | -0.108 |

Block 2 — technique: protein-binding microarray; molecule type: double-stranded DNA, one strand shown; sample: in vitro; tested at: 250 nM; notes: 60-bp whole probe; added: salmon DNA 0.4 mg/ml; reference: random background probes; reading: higher = stronger binding; constant ends, left off below: GCCTAGCAC … GTCTTGATTCGCTTGACGCTGCTG
Target: Interferon regulatory factor 7, full length, phosphomimetic (IRF7, Homo sapiens, UniProt Q92985, residues 1-503, S101K/S471D/S472D/S475D/S476D/S477D/S483D/S484D/S487D)
Residues (chain): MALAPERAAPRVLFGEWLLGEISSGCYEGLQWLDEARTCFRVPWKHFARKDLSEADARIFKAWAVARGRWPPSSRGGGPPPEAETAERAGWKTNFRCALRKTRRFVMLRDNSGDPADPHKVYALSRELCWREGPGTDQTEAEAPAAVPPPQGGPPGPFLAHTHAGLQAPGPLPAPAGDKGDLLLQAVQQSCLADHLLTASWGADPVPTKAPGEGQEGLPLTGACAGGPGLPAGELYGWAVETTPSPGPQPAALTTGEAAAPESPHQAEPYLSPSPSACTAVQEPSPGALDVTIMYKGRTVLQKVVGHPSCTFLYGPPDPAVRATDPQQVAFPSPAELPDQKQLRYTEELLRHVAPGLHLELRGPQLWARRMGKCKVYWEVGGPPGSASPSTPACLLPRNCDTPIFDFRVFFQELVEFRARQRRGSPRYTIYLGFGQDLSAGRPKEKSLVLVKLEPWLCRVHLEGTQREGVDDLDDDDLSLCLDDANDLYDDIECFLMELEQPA
| Sequence | log fluorescence |
| --- | --- |
| TTAGATTTCAGACTGGATTTGTGCTAG | -0.0524 z-score |
| TCACCTTTTTTTTTTTTACTGTGCTAG | 1.17 z-score |
| GACTGTATCGGACTGGGGACGTGCTAG | -0.142 z-score |
| GACGAACTGTGACTGGAGACGTGCTAG | -0.36 z-score |
| CAAGTTTGCCTCCTTCAGTCAGTGCTA | 0.149 z-score |

Block 3 — technique: RNA Bind-n-Seq; molecule type: RNA; sample: in vitro; tested at: 1 µM; notes: whole 134-nt RNA, ends assumed; added: 150 mM KCl; reference: input library; reading: higher = stronger binding
Target: Ras GTPase-activating protein-binding protein 1, RRM domain (G3BP1, Homo sapiens, UniProt Q13283)
Sequence of UniProt Q13283 (whole entry, looked up): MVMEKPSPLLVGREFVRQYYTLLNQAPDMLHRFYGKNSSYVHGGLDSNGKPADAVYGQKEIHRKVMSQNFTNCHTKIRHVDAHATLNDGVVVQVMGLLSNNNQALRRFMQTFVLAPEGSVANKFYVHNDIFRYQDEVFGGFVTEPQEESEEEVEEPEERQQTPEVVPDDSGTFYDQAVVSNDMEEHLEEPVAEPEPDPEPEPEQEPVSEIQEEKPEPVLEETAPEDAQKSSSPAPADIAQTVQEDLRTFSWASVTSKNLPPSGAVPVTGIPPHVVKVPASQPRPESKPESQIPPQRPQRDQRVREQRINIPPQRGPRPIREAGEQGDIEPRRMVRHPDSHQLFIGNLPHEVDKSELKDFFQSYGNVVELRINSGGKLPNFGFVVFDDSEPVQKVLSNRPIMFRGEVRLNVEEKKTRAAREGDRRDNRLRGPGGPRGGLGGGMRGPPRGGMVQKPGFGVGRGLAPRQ
| Sequence | log2 enrichment |
| --- | --- |
| GGGAGUUCUACAGUCCGACGAUCAGUCCUGUGCUACACAUCGUAUGUACCGAAUCGGUUUUUUUGGAAAAAGGAAAAAGGAAAGUAUUAUGUUACGCCGUUCGGAUCUGCACUUGGAAUUCUCGGGUGUCAAGG | -0.246 |
| GGGAGUUCUACAGUCCGACGAUCCCUCAAGUCCUGUGCUACACAUCGUAUGUACCGAAUCGGGCGGGGCGGGCGGGAAAGUAUUAUGUUACGCCGUUCGGAUCUGCACUUCCAUGGAAUUCUCGGGUGUCAAGG | 1.03 |
| GGGAGUUCUACAGUCCGACGAUCCAAGUCCUGUGCUACACAUCGUAUGUACCGAAUCGGUUUGGUUUGGUUUUUUUGGAAAGUAUUAUGUUACGCCGUUCGGAUCUGCACUUCUGGAAUUCUCGGGUGUCAAGG | -0.289 |
| GGGAGUUCUACAGUCCGACGAUCACCAUGCAGGUGGGCAUCUUUGGUAAGUGGGGCAAGGGGGGGAUAGGGAGGGGGGUAACACUUUGGGAACAGGUGGUCCCAGGUCGUUUCUGGAAUUCUCGGGUGUCAAGG | -0.542 |

Single results of other studies
| Molecule | target | test | system | conditions | scale | endpoint | result |
| --- | --- | --- | --- | --- | --- | --- | --- |
| PhoQ, residues 284 288 289 292 302 303 SLCLSL | PhoP, residues 12 14 15 18 19 TQCLL (Escherichia coli, UniProt P23836) | Sort-seq, measured: YFP reporter | E. coli | PhoQ-PhoP variant library, added: 10 µM Mg2+ | reference: high Mg2+ state, higher = stronger signaling | fold induction | 1.06 |

A few entries again (block 1):
| Sequence | E-score |
| --- | --- |
| ACAGTCCA | -0.0834 |
| AGTGGAGG | -0.146 |
| AGTGCTAA | -0.0319 |
